Published values pooled from the literature.
Each line is one published result; not all experiments were run side by side. Numbers after ± are the reported error.
Cell line: SH-SY5Y

Compound	test	conditions	how to read	measurement	result
CC(C)C[C@@H]1NC(=O)[C@H](CC(C)C)NC(=O)[C@H](Cc2ccc(O)cc2)NC(=O)[C@@H](N)CCCNC(=O)[C@H](CCCCN)NC(=O)[C@H](C(C)C)NC(=O)[C@H](C)NC(=O)[C@H](CC(C)C)N(C)C(=O)[C@H](C)NC(=O)[C@H](C(C)C)NC(=O)[C@H](CCCCN)NC(=O)[C@@H](N)CCCNC(=O)[C@H](CCC(=O)O)NC(=O)[C@H]([C@@H](C)O)NC(=O)[C@H](Cc2ccc(O)cc2)NC(=O)[C@H](Cc2ccc(I)cc2)NC1=O	cytotoxicity	25 µM		LDH release	45 ± 6%
CCCC(=O)Oc1c(C)c(OC)c2c(/C=C/c3ccccc3)c(CC)c(=O)oc2c1C	cell growth or viability, SRB	72 h		IC50	> 50000 nM
COc1ccc(NC(=O)COc2ccc(/C=C/C(C)=N/O)cc2OC)cc1	flow cytometry	20 µM, with: amyloid beta 10 µM		TNF-α expressing cells	15.3%
O=C(O)CCCOc1ccc(F)cc1-c1cc(-c2ccccc2C(F)(F)F)n(-c2ccccc2)n1		0.3 µM, with: rotenone		VDAC1 oligomerization	decreased
CC[C@@]1(c2cccc(C(F)(F)F)c2)C2=C(Nc3n[nH]cc31)[C@H](F)C(C)(C)CC2=O (single isomer, unassigned)	β-catenin nuclear translocation	6 h		EC50	3.02 µM
CCCC[C@H]1C(=O)N[C@@H](C)C(=O)N[C@@H](C(C)C)C(=O)N[C@@H](CCCCN)C(=O)NCCC[C@H](N)C(=O)N[C@@H](Cc2ccc(O)cc2)C(=O)N[C@@H](CC(C)C)C(=O)N[C@@H](CC(C)C)C(=O)N[C@@H](Cc2ccc(I)cc2)C(=O)N[C@@H](Cc2ccc(O)cc2)C(=O)N[C@@H]([C@@H](C)O)C(=O)N[C@@H](CCC(=O)O)C(=O)NCCC[C@H](N)C(=O)N[C@@H](CCCCN)C(=O)N[C@@H](C(C)C)C(=O)N[C@@H](C)C(=O)N1C	cytotoxicity	25 µM		LDH release	44 ± 7%
Cc1cc(NC(=O)c2cccc(-n3cc(NC(=O)Nc4ccccc4Cl)cn3)c2)ccn1	c-Jun phosphorylation, inhibitor, in-cell Western	with: 6-OHDA		EC50	< 1 µM
CCCC[C@H]1C(=O)N[C@@H]([C@@H](C)O)C(=O)N[C@@H](C(C)C)C(=O)N[C@@H](CCCCN)C(=O)NCCC[C@H](N)C(=O)N[C@@H](Cc2ccc(O)cc2)C(=O)N[C@@H](CC(C)C)C(=O)N[C@@H](CC(C)C)C(=O)N[C@@H](Cc2ccc(I)cc2)C(=O)N[C@@H](Cc2ccc(O)cc2)C(=O)N[C@@H]([C@@H](C)O)C(=O)N[C@@H](CCC(=O)O)C(=O)NCCC[C@H](N)C(=O)N[C@@H](CCCCN)C(=O)N[C@@H](C(C)C)C(=O)N[C@@H]([C@@H](C)O)C(=O)N1C	cytotoxicity	25 µM		LDH release	36 ± 4%
Cc1c(C)c(C)[c-](C)c1C.O=C1c2cccc[n+]2[Ir]([Cl])[N]1CCCCCCCCCC[P+](c1ccccc1)(c1ccccc1)c1ccc2ccc3cccc4ccc1c2c34.[Br-]	SRB	concentration not given, with: 4-hydroxynonenal 150 µM	reference: 4-hydroxynonenal alone	cell viability	1.4 fold
CCn1cc(/C=C/c2ccc3ccccc3[n+]2CC)c2ccccc21	cell growth or viability, MTT	24 h		IC50	870 nM
Cc1c(C)c(C)[c-](C)c1C.O=C([N-]c1ccccc1)c1ccccn1.[Cl-].[Ir+3]	SRB	5 µM, 3 h, with: aldehyde Ia 20 µM, 24 h	reference: aldehyde Ia alone	viability fold enhancement	1.3 fold
Cc1cc(NC(=O)c2cccc(-n3cc(NC(=O)Nc4ccc(Cl)cc4)cn3)c2)ccn1	mitochondrial depolarization	pretreatment 1 h, with: 35 µM 6-OHDA, 4 h		IC50	46 ± 29 nM
CC(C)C[C@@H]1NC(=O)[C@H](CC(C)C)NC(=O)[C@H](Cc2ccc(O)cc2)NC(=O)[C@@H](N)CCCNC(=O)[C@H](CCCCN)NC(=O)[C@H](C(C)C)NC(=O)[C@H]([C@@H](C)O)NC(=O)[C@H](CC(C)C)N(C)C(=O)[C@H]([C@@H](C)O)NC(=O)[C@H](C(C)C)NC(=O)[C@H](CCCCN)NC(=O)[C@@H](N)CCCNC(=O)[C@H](CCC(=O)O)NC(=O)[C@H]([C@@H](C)O)NC(=O)[C@H](Cc2ccc(O)cc2)NC(=O)[C@H](Cc2ccc(I)cc2)NC1=O	cytotoxicity	25 µM		LDH release	38 ± 5%
CCCCCCCCCC[N]1C(=O)c2cccc[n+]2[Ir]1[Cl].Cc1c(C)c(C)[c-](C)c1C	DCFDA	concentration not given, with: MPP+	reference: untreated	ROS level	6 fold
O=C(Nc1ncc(N2CCOCC2)s1)C12CC3CC(CC(C3)C1)C2	p70S6K phosphorylation, AlphaScreen	20 µM		inhibition	26.1 ± 11.3%
Cc1cc(NC(=O)c2cccc(-n3cc(NC(=O)Nc4ccc(F)cc4)cn3)c2)ccn1	mitochondrial depolarization	pretreatment 1 h, with: 35 µM 6-OHDA, 4 h		IC50	57 ± 48 nM
Cc1c(C)c(C)[c-](C)c1C.O=C1c2cccc[n+]2[Ir]([Cl])[N]1CCCCCCCCCC[P+](c1ccccc1)(c1ccccc1)c1ccccc1.[Br-]	4-hydroxynonenal reduction, HPLC			turnover number	73
CC(C)C[C@@H]1NC(=O)[C@H](CC(C)C)NC(=O)[C@H](Cc2ccc(O)cc2)NC(=O)[C@@H](N)CCCNC(=O)[C@H](CCCCN)NC(=O)[C@H](C(C)C)NC(=O)[C@H](C)NC(=O)[C@H](C)N(C)C(=O)[C@H](C)NC(=O)[C@H](C(C)C)NC(=O)[C@H](CCCCN)NC(=O)[C@@H](N)CCCNC(=O)[C@H](CCC(=O)O)NC(=O)[C@H]([C@@H](C)O)NC(=O)[C@H](Cc2ccc(O)cc2)NC(=O)[C@H](Cc2ccc(I)cc2)NC1=O	cytotoxicity	25 µM		LDH release	37 ± 4%
CC[C@@]1(c2ccccc2)C2=C(CC(C)(C)CC2=O)Nc2n[nH]cc21	β-catenin nuclear translocation	6 h		EC50	> 20 µM

Repeated from above:
Compound	test	conditions	how to read	measurement	result
Cc1c(C)c(C)[c-](C)c1C.O=C([N-]c1ccccc1)c1ccccn1.[Cl-].[Ir+3]	SRB	5 µM, 3 h, with: aldehyde Ia 20 µM, 24 h	reference: aldehyde Ia alone	viability fold enhancement	1.3 fold
Cc1cc(NC(=O)c2cccc(-n3cc(NC(=O)Nc4ccc(Cl)cc4)cn3)c2)ccn1	mitochondrial depolarization	pretreatment 1 h, with: 35 µM 6-OHDA, 4 h		IC50	46 ± 29 nM
CC(C)C[C@@H]1NC(=O)[C@H](CC(C)C)NC(=O)[C@H](Cc2ccc(O)cc2)NC(=O)[C@@H](N)CCCNC(=O)[C@H](CCCCN)NC(=O)[C@H](C(C)C)NC(=O)[C@H]([C@@H](C)O)NC(=O)[C@H](CC(C)C)N(C)C(=O)[C@H]([C@@H](C)O)NC(=O)[C@H](C(C)C)NC(=O)[C@H](CCCCN)NC(=O)[C@@H](N)CCCNC(=O)[C@H](CCC(=O)O)NC(=O)[C@H]([C@@H](C)O)NC(=O)[C@H](Cc2ccc(O)cc2)NC(=O)[C@H](Cc2ccc(I)cc2)NC1=O	cytotoxicity	25 µM		LDH release	38 ± 5%
